Results gathered from unrelated publications.
Protocols differ between the studies behind these lines. Values joined by “and” are separate records of one study, mostly repeats; a detail may differ. ± marks the error that the study gave.

CN[C@@H]1[C@H](O)[C@H](NC)[C@H]2O[C@]3(O)[C@H](O[C@@H]2[C@H]1O)O[C@H](C)C[C@H]3NC(=O)Cc1ccc(F)cn1 — MIC (Mycobacterium ulcerans; ATCC 35840): 0.8 to 1.6 µg/mL
Cc1nc2cc(OC(F)(F)F)ccn2c1C(=O)NCc1ccc2oc(-c3ccc(Cl)cc3)nc2c1 — MIC90 (Mycolicibacterium smegmatis): > 100 µM
Cc1ccc(OCCN(C)C)cc1C(=O)N[C@H](C)c1cc(-c2cnn(C3CNC3)c2)nc2ccccc12 — viability (Vero E6; 3.906 µM): 100% and 110%
Nc1ccccc1C(=O)OCC#CCOC(=O)c1ccccc1N — MIC50 (Aspergillus fumigatus; microbial growth, broth dilution; MF5668): 2 µg/mL
COc1ccccc1-c1n[nH]c2nc(N[C@H]3CC[C@H](NS(=O)(=O)CC(C)C)CC3)ncc12 — relative abundance (bead binding, competition bead pull-down, measured: LINJ.28.3060; Leishmania donovani extract; 10 µM; relative to: vehicle): 0.75
CC(C)CC(C(=O)N1CC2(CC1C#N)C(=O)Nc1ccccc12)N(C)C(=O)c1cc2c(F)cc(F)c(F)c2[nH]1 (stereo not shown) — inhibition (human coronavirus 229E; viral replication; 0.0037 µM): 99%
CCc1ccn2c(C(=O)NC(C)c3ccccc3)c(C)nc2c1 (stereo not shown) — inhibition zone (Mycolicibacterium smegmatis; microbial growth; MC2155; 2 mM): 0 mm
CSc1ccc(-c2ccc(Cn3ccnc3)cc2)s1 — MIC50 (Mycobacterium tuberculosis variant bovis BCG; microbial growth; BCG): 3.2 µM
Cc1nc2cc(C(F)(F)F)ccn2c1C(=O)NCc1ccc2oc(-c3ccc(OC(F)(F)F)cc3)nc2c1 — MIC90 (Mycolicibacterium smegmatis): > 100 µM
O=C1C(NCCc2ccc(O)cc2)=CC2=NCCc3c(Br)[nH]c1c32 — IC50 (Babesia duncani; parasite growth, SYBR Green; 60 h, blood stage): 4.8 µM
N=C(N)NCCC[C@@H]1NC(=O)[C@H](CCCCNC(=O)CCC(NC(=S)Nc2ccc(CC3CN(CC(=O)O)CCN(CC(=O)O)CCN(CC(=O)O)CCN3CC(=O)O)cc2)C(=O)NCCCC[C@@H]2NC(=O)[C@@H](Cc3ccc(O)cc3)NC(=O)[C@H](CC(=O)O)NC(=O)CNC(=O)[C@H](CCCNC(=N)N)NC2=O)NC(=O)[C@@H](Cc2ccc(O)cc2)NC(=O)[C@H](CC(=O)O)NC(=O)CNC1=O (stereo partly shown) [scandium-44 labelled] — tissue uptake (ex vivo γ-counting; female athymic nude mice, U-87 MG xenograft, pancreas; intravenous, 4 h): 0.15 ± 0.06 %ID/g
COc1ccc(-c2ccc3c(c2)CCC3n2ccnc2)cc1 (stereo not shown) — MIC50 (Mycobacterium tuberculosis variant bovis BCG; microbial growth; BCG): 3.3 µM
CN[C@@H]1[C@H](O)[C@H](NC)[C@H]2O[C@]3(O)[C@H](O[C@@H]2[C@H]1O)O[C@H](C)C[C@H]3NC(=O)Cc1cc(Cl)ccn1 — MIC (Mycobacterium ulcerans; ATCC 35840): 0.4 µg/mL
CCc1nc2ccc(OC(F)(F)F)cn2c1C(=O)NCc1ccc2oc(-c3ccc(OC(F)(F)F)cc3)nc2c1 — MIC90 (Mycolicibacterium smegmatis): > 100 µM
O=C1C(=O)c2[nH]cc3c2C(=C1Cl)NCC3 — IC50 (Babesia duncani; parasite growth, SYBR Green; 60 h, blood stage): 24 µM
Cc1ccc(CNC(=O)Cc2c(C)nc3ccc(C)cn23)cc1 — MIC (Mycobacterium tuberculosis variant bovis BCG; microbial growth; BCG; 6 days): 6.1 µM
O=C1NC2(CC2)COc2ncc(F)cc2[C@H]2COCCN2c2ccn3ncc1c3n2 — organ-to-brain weight ratio (Sprague-Dawley rat, male, adrenals; oral, 5 mg/kg/day, 4 weeks dosing, end of recovery): 2.78 ± 0.15%
Cc1nc2ccc(C(F)(F)F)cn2c1C(=O)NCc1ccc2oc(-c3ccc(OC(F)(F)F)cc3)nc2c1 — MIC (Mycolicibacterium smegmatis; 72 h): > 100 µM
COc1c(Br)cc(CCNC2=CC3=NCCc4c[nH]c(c43)C2=O)cc1Br — IC50 (Babesia duncani; parasite growth, SYBR Green; 60 h, blood stage): 1.82 µM
Cc1cc(Oc2nc(N3CC[C@@H](c4ccncc4)C3)ncc2F)[nH]n1 — normalised growth (Mycobacterium tuberculosis; OD; H37Rv PurF CRISPRi knockdown; 7e-06 µM, with: anhydrotetracycline low): 97% and 99% and 102%
CN[C@@H]1[C@H](O)[C@H](NC)[C@H]2O[C@]3(O)[C@H](O[C@@H]2[C@H]1O)O[C@H](C)C[C@H]3NC(=O)Cc1cscn1 — MIC (Mycobacterium tuberculosis variant bovis BCG; microbial growth; BCG): 1.6 µg/mL
Fc1ccc(F)c(-c2ccc(Cn3ccnc3)c(F)c2)c1 — MIC50 (Mycobacterium tuberculosis variant bovis BCG; microbial growth; BCG): 2.9 µM
Cc1ccc(OCCN(C)C)cc1C(=O)N[C@H](C)c1cc(-c2scnc2C)nc2ccccc12 — viability (Vero E6; 7.812 µM): 105% and 96.2%
CCc1nc2cc(C(F)(F)F)ccn2c1C(=O)NCc1ccc2oc(-c3ccc(OC(F)(F)F)cc3)nc2c1 — MIC (Mycolicibacterium smegmatis; 72 h): > 50 µM
CC(C)(C)C(=O)OCOP(=O)(OCOC(=O)C(C)(C)C)C1CCCN(O)C1=O (stereo not shown) — CC50 (MDA-MB-231): > 100 µM
Cc1cc(C(=O)Nc2nc3cccc(C)c3n2[C@H]2CCCCN(C(=O)/C=C/CN(C)C)C2)ccn1 — cell cycle distribution (Trypanosoma brucei; propidium iodide flow cytometry, measured: S phase; bloodstream CLK1 over-expression uninduced; concentration not given): 10.8% and 14.6% and 11.7%
C=CC(c1ccc(-c2ccc(OC)c(F)c2)cc1)n1ccnc1 (stereo not shown) — MIC50 (Mycobacterium tuberculosis variant bovis BCG; microbial growth; BCG): 14.5 µM
CN[C@@H]1[C@H](O)[C@H](NC)[C@H]2O[C@]3(O)[C@H](O[C@@H]2[C@H]1O)O[C@H](C)C[C@H]3NC(=O)Cc1ccc(Cl)cn1 — MIC (Mycobacterium ulcerans; ATCC 35840): 0.2 to 0.4 µg/mL
COc1ccccc1-c1n[nH]c2nc(NC3CCN(C(=O)Cc4ccc(F)cc4F)CC3)ncc12 — relative abundance (bead binding, competition bead pull-down, measured: LINJ.30.1580; Leishmania donovani axenic amastigote extract; 10 µM; relative to: vehicle): 0.24
Fc1ccc(-c2ccc(Cn3ccnc3)c(F)c2)c(F)c1 — MIC50 (Mycobacterium tuberculosis variant bovis BCG; microbial growth; BCG): 3.4 µM
CCc1nc2ccc(Br)cn2c1C(=O)NCc1ccc2oc(-c3ccc(Cl)cc3)nc2c1 — MIC (Mycolicibacterium smegmatis; 72 h): > 50 µM
FC(F)(F)c1ccc(-c2ccc(Cn3ccnc3)cc2)cc1 — MIC50 (Mycobacterium tuberculosis variant bovis BCG; microbial growth; BCG): 2.4 µM
Cc1nc2ccc(OC(F)(F)F)cn2c1C(=O)NCc1ccc2oc(-c3ccc(OC(F)(F)F)cc3)nc2c1 — MIC (Mycolicibacterium smegmatis; 72 h): > 50 µM
O=C1C(NCCc2cc(Br)c(O)c(Br)c2)=CC2=NCCc3c[nH]c1c32 — IC50 (Babesia duncani; parasite growth, SYBR Green; 60 h, blood stage): 6.82 µM
Cc1nc2cc(Br)ccn2c1C(=O)NCc1ccc2oc(-c3ccc(Cl)cc3)nc2c1 — MIC (Mycolicibacterium smegmatis; 72 h): > 100 µM
Cc1ccc(S(=O)(=O)n2cc3c4c2C(=O)C(N)=CC4=NCC3)cc1 — IC50 (Babesia duncani; parasite growth, SYBR Green; 60 h, blood stage): 1.15 µM
CN[C@@H]1[C@H](O)[C@H](NC)[C@H]2O[C@]3(O)[C@H](O[C@@H]2[C@H]1O)O[C@H](C)C[C@H]3NC(=O)Cc1ccccn1 — MIC (Mycobacterium tuberculosis variant bovis BCG; microbial growth; BCG): 0.8 to 1.6 µg/mL

A few entries again:
Cc1nc2cc(OC(F)(F)F)ccn2c1C(=O)NCc1ccc2oc(-c3ccc(Cl)cc3)nc2c1 — MIC90 (Mycolicibacterium smegmatis): > 100 µM
CC(C)(C)C(=O)OCOP(=O)(OCOC(=O)C(C)(C)C)C1CCCN(O)C1=O (stereo not shown) — CC50 (MDA-MB-231): > 100 µM
COc1ccccc1-c1n[nH]c2nc(NC3CCN(C(=O)Cc4ccc(F)cc4F)CC3)ncc12 — relative abundance (bead binding, competition bead pull-down, measured: LINJ.30.1580; Leishmania donovani axenic amastigote extract; 10 µM; relative to: vehicle): 0.24
Cc1nc2ccc(OC(F)(F)F)cn2c1C(=O)NCc1ccc2oc(-c3ccc(OC(F)(F)F)cc3)nc2c1 — MIC (Mycolicibacterium smegmatis; 72 h): > 50 µM
CSc1ccc(-c2ccc(Cn3ccnc3)cc2)s1 — MIC50 (Mycobacterium tuberculosis variant bovis BCG; microbial growth; BCG): 3.2 µM
COc1c(Br)cc(CCNC2=CC3=NCCc4c[nH]c(c43)C2=O)cc1Br — IC50 (Babesia duncani; parasite growth, SYBR Green; 60 h, blood stage): 1.82 µM
